Results of several laboratories.
Each numbered part is a random draw from the data of one study; scales do not carry over between parts. Changes are numbered by the printed parent chain.

Set 1 — technique: aptamer microarray, sandwich; molecule type: DNA with 2'F-ANA; matrix: in vitro; concentration: 200 nM; together with: Cy3 exosite-II aptamer, 400 nM; direction: higher = stronger binding; strand: GGTTGGTGTGGTTGG
Target: Prothrombin, mature alpha-thrombin (F2, Homo sapiens, UniProt P00734)
Setting: whole 15-mer aptamer, many near background
Modification	mean fluorescence intensity [a.u.]
2'F-ANA at 2 3 8 11 12 14	485
2'F-ANA at 1 8 9 10 12 13 15	71.9
2'F-ANA at 2 4 5 12 13 14	45.1
2'F-ANA at 1 6 7 9 12	321
2'F-ANA at 3 4 6 7 8 11 14	326
2'F-ANA at 5 7 9 13 14	42.9
2'F-ANA at 3 8 9 13 14 15	644
2'F-ANA at 1 2 3 8 9 12 13	434
2'F-ANA at 1 6 7 8 13 15	156
2'F-ANA at 1 2 4 5 7 8 9 10 13	64.1
2'F-ANA at 2 3 4 6 8 11 12 15	650
2'F-ANA at 2 3 7 9 10 14 15	294
2'F-ANA at 1 3 4 5 9 12 15	109
2'F-ANA at 1 2 5 13 14	56.3
2'F-ANA at 2 5 6 7 11 13 14 15	82.9
2'F-ANA at 3 5 10	53.2
2'F-ANA at 2 3 5 6 8 9 10 12 13 14 15	51.4
2'F-ANA at 2 5 7 8 10 11 12 13 15	49.6
2'F-ANA at 2 3 4 5 6 9 11 13 14	49.2
2'F-ANA at 1 2 3 4 5 6 7 9 10 12 13 15	90.9
2'F-ANA at 3 4 5 8 9 10 11 14 15	345
2'F-ANA at 4 9 12 13 15	337
2'F-ANA at 1 5 8 9 10 11 12 13 14 15	48.2
2'F-ANA at 2 9 10 11 12 13 15	144
2'F-ANA at 2 3 4 6 8 10 12	297

Set 2 — target: UBE2G2 UBC core domain (UniProt P60604); technique: yeast two-hybrid; matrix: yeast; setting: mostly zero background; relative to: not given; direction: higher = stronger interaction
B1: PRKN RING domain (UniProt O60260); chain LIATNSRNITCITCTDVRSPVLVFQCNSRHVICLDCFHLYCVTRLNDRQFVHDPQLGYSLPCVAGCPNSLIKELHH
B2: ZNRF3 RING domain (UniProt Q9ULT6); chain DTLSSSSTSDCAICLEKYIDGEELRVIPCTHRFHRKCVDPWLLQHHTCPHCRHNIIEQKGNP
B3: DTX1 RING domain (UniProt Q86Y01); chain QKVKNPPDEDCTICMERLVTASGYEGVLRHKGVRPELVGRLGRCGHMYHLLCLVAMYSNGNKDGSLQCPTCKAIYGEKTGTQ
B4: Ltn1 RING domain (UniProt Q6A009); chain VDKRFEGVEDCMICFSVIHGFNYSLPKKACRTCKKKFHSACLYKWFTSSNKSTCPLCRETFF
B5: RNF181 RING domain (UniProt Q9P0P0); chain VIRGSQAELKCPVCLLEFEEEETAIEMPCHHLFHSSCILPWLSKTNSCPLCRYELPTDDDTY
B6: RNF135 RING domain (UniProt Q8IUD6); chain PVWLAEDDLGCIICQGLLDWPATLPCGHSFCRHCLEALWGARDARRWACPTCRQGAAQQPHLR
B7: RNF24 RING domain (UniProt Q9Y225); chain KVKELNLHELCAVCLEDFKPRDELGICPCKHAFHRKCLIKWLEVRKVCPLCNMPVLQLAQLH
B8: TRIM48 RING domain (UniProt Q8IWZ4); chain ISQVFQRELTCPICMNYFIDPVTIDCGHSFCRPCFYLNWQDIPILTQCFECIKTIQQRNLKT
B9: TRIM22 RING domain (UniProt Q8IYM9); chain KEVKMSPQEGQKRDVCEHHGKKLQIFCKEDGKVICWVCELSQEHQGHQTFRINEVVKECQEK
Residues (chain): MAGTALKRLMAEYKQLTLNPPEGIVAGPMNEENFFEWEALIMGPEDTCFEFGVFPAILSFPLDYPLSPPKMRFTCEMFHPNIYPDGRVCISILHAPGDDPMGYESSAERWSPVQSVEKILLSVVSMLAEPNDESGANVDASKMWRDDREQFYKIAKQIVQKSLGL
Molecule	lacZ reporter activity
QLRRLQEERTCKVCLDRAVSIVFVPCGHLVCAECAPGLQLCPICRAPVRSRVRTF (BIRC7 RING domain (UniProt Q96CA5))	8250
B1 (PRKN RING domain)	0
KITELNPHLMCVLCGGYFIDATTIIECLHSFCKTCIVRYLETSKYCPICDVQVHKTRPLL (BMI1 RING domain (UniProt P35226))	0
ALDRLEKLLRCSRCTNILREPVCLGGCEHIFCSNCVSDCIGTGCPVCYTPAWIQDLKI (BARD1 RING domain (UniProt Q99728))	0
B2 (ZNRF3 RING domain)	4450
KLWDINAHITCRLCSGYLIDATTVTECLHTFCRSCLVKYLEENNTCPTCRIVIHQSHPLQ (PCGF3 RING domain (UniProt Q3KNV8))	0
B3 (DTX1 RING domain)	0
B4 (Ltn1 RING domain)	0
KEQLEKHNDICAICYQDMKSAVITPCSHFFHAGCLKKWLYVQETCPLCHCHLKNSSQLP (RNF145 RING domain (UniProt Q96MT1))	0
MDDQGCPRCKTTKYRNPSLKLMVNVCGHTLCESCVDLLFVRGAGNCPECGTPLRKSNFRV (MNAT1 RING domain (UniProt P51948))	0
B5 (RNF181 RING domain)	9310
B6 (RNF135 RING domain)	0
NTAPSLTVPECAICLQTCVHPVSLPCKHVFCYLCVKGASWLGKRCALCRQEIPEDFLDK (RNF146 RING domain (UniProt Q9NTX7))	2420
B7 (RNF24 RING domain)	0
B8 (TRIM48 RING domain)	0
B9 (TRIM22 RING domain)	0

Set 3 — target: CEBPD, bZIP domain (human); technique: DHFR protein complementation; matrix: yeast; relative to: wild-type JUN-FOS pair; direction: higher = stronger binding
Setting: single substitutions, most at no-binding floor
Starting sequence: JUN, bZIP domain (human); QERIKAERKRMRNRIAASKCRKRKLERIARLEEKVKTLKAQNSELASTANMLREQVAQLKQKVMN; partner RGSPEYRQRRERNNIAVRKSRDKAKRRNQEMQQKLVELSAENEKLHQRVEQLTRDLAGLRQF
Variant	binding fitness
R30A	-1.23 natural log
A49N	-1.54 natural log
K39C	-1.15 natural log
R30E	-1.19 natural log
R30I	-1.31 natural log
A29W	-1.36 natural log
E33D	-1.31 natural log
A46G	-1.47 natural log
A40R	-1.38 natural log
A57W	-1.38 natural log
E44D	-1.53 natural log
N42G	-1.49 natural log
V56M	-1.5 natural log
A49E	-1.21 natural log
Q41W	-1.47 natural log

Set 4 — target: CCND1, cyclin fold, Cln2 fusion (human); technique: yeast growth competition, sequencing; matrix: yeast; setting: strong parent motif; relative to: not given; direction: higher = stronger binding
Starting sequence: E2F1 docking peptide (human); PPVKRRLDFETDH; partner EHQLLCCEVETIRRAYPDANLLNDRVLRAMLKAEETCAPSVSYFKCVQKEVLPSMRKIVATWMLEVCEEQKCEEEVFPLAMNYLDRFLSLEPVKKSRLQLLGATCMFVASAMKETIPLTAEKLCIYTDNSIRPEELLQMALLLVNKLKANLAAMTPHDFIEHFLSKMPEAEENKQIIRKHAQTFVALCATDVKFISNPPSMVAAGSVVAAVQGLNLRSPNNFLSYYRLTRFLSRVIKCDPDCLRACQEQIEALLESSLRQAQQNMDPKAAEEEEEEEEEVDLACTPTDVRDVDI
Variant	normalised enrichment score
PPAKRRLDFETDH [V3A]	2.87
PPVPRRLDFETDH [K4P]	1.17
PPVKRRLFFETDH [D8F]	2.92
PLVKRRLDFETDH [P2L]	1.35
PPVKRRLDIETDH [F9I]	0.318
PPVKRLLDFETDH [R6L]	1.13
PPVKNRLDFETDH [R5N]	0.539
PPVKRRLDFEHDH [T11H]	2.79
PPVKRRLDFETTH [D12T]	2.66
PPVKRRLDFEFDH [T11F]	3.31
PPVWRRLDFETDH [K4W]	1.2
PPVKRCLDFETDH [R6C]	2.35
PPVKKRLDFETDH [R5K]	0.77
PPVKRRLDFEWDH [T11W]	2.8
PPVKRRLWFETDH [D8W]	1.09
PPVKRRPDFETDH [L7P]	-0.0749
PPVKRRLDFEPDH [T11P]	2.48
PPVKRRLDFERDH [T11R]	1.84
PPVKRRADFETDH [L7A]	0.426
PPVKRRLDEETDH [F9E]	0.369
PPVKRRLDFEDDH [T11D]	3.47
PPVKRRLDFETFH [D12F]	2.87
PPVKRRLDFELDH [T11L]	2.81

Set 5 — technique: DHFR PCA, deep sequencing; matrix: yeast; together with: (+)-ABA 17 µM; relative to: wild-type fitted maximum; direction: higher = stronger binding
Target: ABI1, truncated, D143A, DHFR fusion (Arabidopsis thaliana)
Setting: methotrexate growth selection, single substitutions
Starting sequence: PYL1, truncated, DHFR fusion (Arabidopsis thaliana); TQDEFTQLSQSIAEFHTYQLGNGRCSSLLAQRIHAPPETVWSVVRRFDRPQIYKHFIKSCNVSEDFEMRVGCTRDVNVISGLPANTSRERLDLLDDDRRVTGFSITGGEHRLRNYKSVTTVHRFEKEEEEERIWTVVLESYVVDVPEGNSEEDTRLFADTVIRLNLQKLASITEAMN
Variant	relative binding score [%]
E129A	93
G148A	47.2
D75L	91.2
P36K	75.4
G71Y	-6.55
I105S	48.1
N22T	84.5
E127Y	78.6
G23I	21.8
V143Y	-10.7
T73L	78.9
E38C	48.4
G71D	14.8
L138Q	13.7
S150W	3.24
R69L	66.4
F103V	-7.17
S27P	16
A84S	29.1
